Measurements from different studies.
Lines come from different studies, so protocols differ. Numbers after ± are the reported error.

| Compound | test | test system | setting | Cmax |
| --- | --- | --- | --- | --- |
| CCCCCOc1ccc(-c2ccc(-c3ccc(C(=O)N[C@H]4C[C@@H](O)[C@@H](OCC[N+](C)(C)C)NC(=O)[C@@H]5[C@@H](O)[C@@H](C)CN5C(=O)[C@H]([C@@H](C)O)NC(=O)[C@H]([C@H](O)[C@@H](O)c5ccc(O)cc5)NC(=O)[C@@H]5C[C@@H](O)CN5C(=O)[C@H]([C@@H](C)O)NC4=O)cc3)cc2)cc1 |  | adult patients not in ICU, plasma | intravenous, 400 mg loading, after first dose, median | 17800 ng/mL |
| CN[C@H](CC(C)C)C(=O)N[C@H]1C(=O)N[C@@H](CC(N)=O)C(=O)N[C@H]2C(=O)N[C@H]3C(=O)N[C@H](C(=O)N[C@H](C(=O)O)c4cc(O)cc(O)c4-c4cc3ccc4O)[C@H](O)c3ccc(c(Cl)c3)Oc3cc2cc(c3O[C@@H]2O[C@H](CO)[C@@H](O)[C@H](O)[C@H]2O[C@H]2C[C@](C)(N)[C@H](O)[C@H](C)O2)Oc2ccc(cc2Cl)[C@H]1O |  | rabbit, serum | intravenous, 7.5 mg/kg | 3000 ng/mL |
| C[C@]1(CO)Cc2ncn(-c3ccc(C#N)c(Cl)c3)c2C(=O)O1 |  | healthy Japanese adults, plasma | 20 mg single dose | 1070 nM |
| CC[C@H](C)CCCCC(=O)N[C@@H](CCN)C(=O)N[C@H](C(=O)N[C@@H](CCN)C(=O)N[C@H]1CCNC(=O)[C@H]([C@@H](C)O)NC(=O)[C@H](CCN)NC(=O)[C@H](CCN)NC(=O)[C@H](CC(C)C)NC(=O)[C@@H](Cc2ccccc2)NC(=O)[C@H](CCN)NC1=O)[C@@H](C)O |  | critically ill patients, plasma | intravenous, dose not given, steady state, Moderate AUC group, median | 6160 ng/mL |
| Cn1ncc(-c2nc(N[C@H]3CC[C@H](N)CC3)ncc2Cl)c1CC1CC1 | HPLC-MS/MS | patients, plasma | oral, 8 mg, day 5 | 37.1 ng/mL |
| CCCCC[C@H](O)CC[C@@H]1[C@H]2Cc3cccc(OCC(=O)O)c3C[C@H]2C[C@H]1O |  | healthy Japanese adults, plasma | inhaled, 36 µg single dose, scaled by body weight/60 kg | 0.85 ± 0.15 ng/mL |
| Cc1ncc2n1-c1ccc(Cl)cc1C(c1ccccc1F)=NC2 |  | healthy volunteers, plasma | oral, 5 mg, day 11, together with: momelotinib, once daily 200 mg, days 4-11 | 16.5 ng/mL |
| O[C@H]1CCCN[C@@H]1CCCn1cnc2c(Cl)c(Cl)ccc21 |  | healthy CYP2D6 intermediate metabolizers, plasma | oral, 150 mg single dose | 237 ng/mL |

Excerpt of the above:
| Compound | test | test system | setting | Cmax |
| --- | --- | --- | --- | --- |
| C[C@]1(CO)Cc2ncn(-c3ccc(C#N)c(Cl)c3)c2C(=O)O1 |  | healthy Japanese adults, plasma | 20 mg single dose | 1070 nM |
